Measurements collected from several papers.
A part holds a random share of what one study measured. Several values in a cell are separate wells, animals, samples, runs or records.
UniProt P06241, sequence (whole entry, looked up): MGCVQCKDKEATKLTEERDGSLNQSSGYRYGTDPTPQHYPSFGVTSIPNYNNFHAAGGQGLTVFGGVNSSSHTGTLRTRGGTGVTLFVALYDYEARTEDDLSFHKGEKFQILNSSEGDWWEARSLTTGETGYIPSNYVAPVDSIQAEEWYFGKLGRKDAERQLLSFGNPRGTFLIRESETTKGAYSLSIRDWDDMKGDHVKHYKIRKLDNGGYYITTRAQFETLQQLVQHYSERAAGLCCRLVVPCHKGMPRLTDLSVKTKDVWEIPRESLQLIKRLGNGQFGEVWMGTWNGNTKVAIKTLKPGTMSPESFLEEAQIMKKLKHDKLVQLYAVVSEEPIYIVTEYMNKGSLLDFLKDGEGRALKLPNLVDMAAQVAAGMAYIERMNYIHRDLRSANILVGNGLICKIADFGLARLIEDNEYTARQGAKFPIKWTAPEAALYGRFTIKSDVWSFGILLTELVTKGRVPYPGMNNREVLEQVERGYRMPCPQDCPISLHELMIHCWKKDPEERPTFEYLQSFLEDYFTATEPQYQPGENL
UniProt P09769, sequence (whole entry, looked up): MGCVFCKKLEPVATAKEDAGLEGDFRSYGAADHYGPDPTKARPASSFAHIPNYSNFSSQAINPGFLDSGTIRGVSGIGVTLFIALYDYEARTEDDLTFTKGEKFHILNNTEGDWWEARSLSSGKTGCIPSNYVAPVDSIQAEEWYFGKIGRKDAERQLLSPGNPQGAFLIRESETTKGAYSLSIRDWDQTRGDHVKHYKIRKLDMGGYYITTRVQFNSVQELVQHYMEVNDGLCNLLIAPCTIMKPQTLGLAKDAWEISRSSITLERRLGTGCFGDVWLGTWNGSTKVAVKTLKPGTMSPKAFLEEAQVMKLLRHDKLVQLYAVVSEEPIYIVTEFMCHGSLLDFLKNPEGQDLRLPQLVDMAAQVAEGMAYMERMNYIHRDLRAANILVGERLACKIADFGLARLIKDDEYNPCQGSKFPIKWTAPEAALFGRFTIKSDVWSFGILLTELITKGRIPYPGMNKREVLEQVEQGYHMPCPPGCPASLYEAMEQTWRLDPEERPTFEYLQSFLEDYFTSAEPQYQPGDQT
UniProt P28566, sequence (whole entry, looked up): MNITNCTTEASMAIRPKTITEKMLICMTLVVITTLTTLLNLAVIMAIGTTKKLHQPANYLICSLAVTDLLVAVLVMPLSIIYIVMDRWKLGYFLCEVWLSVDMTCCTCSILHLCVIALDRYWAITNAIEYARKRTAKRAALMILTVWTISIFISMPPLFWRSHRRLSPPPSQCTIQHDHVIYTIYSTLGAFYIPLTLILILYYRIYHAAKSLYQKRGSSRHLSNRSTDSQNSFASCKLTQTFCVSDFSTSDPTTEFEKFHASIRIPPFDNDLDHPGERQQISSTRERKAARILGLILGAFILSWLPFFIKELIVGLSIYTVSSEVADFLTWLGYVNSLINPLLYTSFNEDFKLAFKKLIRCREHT
UniProt P61075, sequence (whole entry, looked up): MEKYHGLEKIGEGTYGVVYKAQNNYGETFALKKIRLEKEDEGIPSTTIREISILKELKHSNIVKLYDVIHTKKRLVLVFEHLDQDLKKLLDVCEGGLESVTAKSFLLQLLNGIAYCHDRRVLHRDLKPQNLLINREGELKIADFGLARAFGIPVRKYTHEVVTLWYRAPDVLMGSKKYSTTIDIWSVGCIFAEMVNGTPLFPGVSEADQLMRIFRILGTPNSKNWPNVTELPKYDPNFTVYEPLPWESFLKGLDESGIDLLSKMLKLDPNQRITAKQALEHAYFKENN

Block 1
Target: DNA polymerase theta, ATPase domain (POLQ, Homo sapiens, UniProt O75417)
UniProt O75417, sequence (whole entry, unmodified, looked up): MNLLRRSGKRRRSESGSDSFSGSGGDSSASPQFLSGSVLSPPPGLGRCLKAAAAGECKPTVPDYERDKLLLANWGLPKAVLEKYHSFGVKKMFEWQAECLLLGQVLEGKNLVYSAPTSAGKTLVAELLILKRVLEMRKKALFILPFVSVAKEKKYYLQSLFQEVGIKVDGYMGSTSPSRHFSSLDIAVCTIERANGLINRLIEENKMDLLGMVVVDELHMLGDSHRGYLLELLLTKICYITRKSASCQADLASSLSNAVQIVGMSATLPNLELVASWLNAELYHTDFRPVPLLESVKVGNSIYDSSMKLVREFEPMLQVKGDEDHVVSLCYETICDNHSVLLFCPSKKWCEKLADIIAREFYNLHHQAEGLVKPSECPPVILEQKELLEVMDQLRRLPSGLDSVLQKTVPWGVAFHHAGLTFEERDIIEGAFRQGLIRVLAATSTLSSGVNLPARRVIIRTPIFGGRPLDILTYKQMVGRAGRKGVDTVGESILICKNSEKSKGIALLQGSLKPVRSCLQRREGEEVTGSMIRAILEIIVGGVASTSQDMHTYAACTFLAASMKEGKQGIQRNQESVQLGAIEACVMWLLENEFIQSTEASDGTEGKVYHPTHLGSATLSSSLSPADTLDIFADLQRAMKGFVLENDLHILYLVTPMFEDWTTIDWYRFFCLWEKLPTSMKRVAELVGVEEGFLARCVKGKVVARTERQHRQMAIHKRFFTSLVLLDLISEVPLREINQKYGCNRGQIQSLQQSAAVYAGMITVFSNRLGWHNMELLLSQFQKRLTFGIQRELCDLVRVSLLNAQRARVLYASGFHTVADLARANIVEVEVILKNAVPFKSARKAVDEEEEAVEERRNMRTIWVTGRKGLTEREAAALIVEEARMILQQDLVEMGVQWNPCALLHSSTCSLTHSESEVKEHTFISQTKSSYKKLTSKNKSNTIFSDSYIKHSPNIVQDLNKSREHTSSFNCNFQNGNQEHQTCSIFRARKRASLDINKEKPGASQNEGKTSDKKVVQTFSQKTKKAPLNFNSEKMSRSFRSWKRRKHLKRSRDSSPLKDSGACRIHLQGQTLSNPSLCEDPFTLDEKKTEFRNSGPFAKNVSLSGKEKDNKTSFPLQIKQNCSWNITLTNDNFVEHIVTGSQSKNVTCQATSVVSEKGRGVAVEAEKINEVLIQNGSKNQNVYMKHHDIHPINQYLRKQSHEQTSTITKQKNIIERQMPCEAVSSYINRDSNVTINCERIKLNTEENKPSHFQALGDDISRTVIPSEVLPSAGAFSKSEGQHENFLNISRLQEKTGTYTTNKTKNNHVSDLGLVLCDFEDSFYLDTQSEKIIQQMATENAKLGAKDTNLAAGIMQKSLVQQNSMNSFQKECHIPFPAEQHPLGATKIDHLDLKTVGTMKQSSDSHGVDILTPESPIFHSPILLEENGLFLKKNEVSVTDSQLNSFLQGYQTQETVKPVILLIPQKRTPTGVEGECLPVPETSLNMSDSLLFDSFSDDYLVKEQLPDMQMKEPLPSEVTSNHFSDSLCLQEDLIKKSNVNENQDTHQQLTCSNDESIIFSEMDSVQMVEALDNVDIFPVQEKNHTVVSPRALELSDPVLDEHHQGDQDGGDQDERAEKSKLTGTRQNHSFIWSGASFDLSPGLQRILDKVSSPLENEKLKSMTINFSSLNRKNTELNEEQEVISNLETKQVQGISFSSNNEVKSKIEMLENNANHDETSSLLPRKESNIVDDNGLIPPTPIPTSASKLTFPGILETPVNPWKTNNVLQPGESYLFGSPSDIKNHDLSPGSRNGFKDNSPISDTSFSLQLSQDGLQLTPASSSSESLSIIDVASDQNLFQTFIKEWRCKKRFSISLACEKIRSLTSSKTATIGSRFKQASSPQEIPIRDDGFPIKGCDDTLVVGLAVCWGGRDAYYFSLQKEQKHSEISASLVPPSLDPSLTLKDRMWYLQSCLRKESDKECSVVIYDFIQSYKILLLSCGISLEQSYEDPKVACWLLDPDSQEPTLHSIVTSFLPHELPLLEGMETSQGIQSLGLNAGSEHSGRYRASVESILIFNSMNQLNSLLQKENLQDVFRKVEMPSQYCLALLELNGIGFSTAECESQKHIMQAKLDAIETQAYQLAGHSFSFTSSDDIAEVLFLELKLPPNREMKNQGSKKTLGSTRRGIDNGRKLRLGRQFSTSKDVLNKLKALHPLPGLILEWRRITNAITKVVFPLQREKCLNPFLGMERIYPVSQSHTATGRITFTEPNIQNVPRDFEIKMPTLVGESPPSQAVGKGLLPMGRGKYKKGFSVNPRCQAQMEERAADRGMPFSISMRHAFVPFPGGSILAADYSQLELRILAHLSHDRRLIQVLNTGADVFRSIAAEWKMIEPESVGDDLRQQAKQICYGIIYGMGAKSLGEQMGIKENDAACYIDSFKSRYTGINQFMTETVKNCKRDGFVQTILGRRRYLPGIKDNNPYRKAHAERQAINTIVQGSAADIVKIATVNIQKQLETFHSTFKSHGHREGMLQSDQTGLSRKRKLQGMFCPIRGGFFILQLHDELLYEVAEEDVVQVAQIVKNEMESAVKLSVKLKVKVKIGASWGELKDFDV
Observed: enzyme activity
Mode: inhibitor
Tested at: 77 µM
Relative to: untreated
Quantity: remaining activity
Structure (SMILES) = CN1[C@@H]2CC[C@H]1CC(O)C2 (stereo partly drawn); value = 102%
Structure (SMILES) = CC(C)N(CCNC(=O)CN1CCCC1=O)C(C)C; value = 94.8%
Structure (SMILES) = c1ccc2nc(N3CCNCC3)ccc2c1; value = 104%
Structure (SMILES) = CCCN1CCC[C@@H](c2cccc(O)c2)C1; value = 99.2%
Structure (SMILES) = CC(=O)[C@H]1CC[C@H]2[C@@H]3CC[C@H]4C[C@](C)(O)CC[C@]4(C)[C@H]3CC[C@]12C; value = 103%
Structure (SMILES) = C=C(C)[C@@H]1[C@H]2OC(=O)[C@@H]1[C@]1(O)C[C@H]3O[C@]34C(=O)O[C@H]2[C@]14C; value = 106%
Structure (SMILES) = CCN1C[C@]2(COC)CC[C@H](O)[C@]34C1[C@@](O)([C@@H](OC)[C@H]23)[C@@]1(O)C[C@H](OC)[C@H]2C[C@@H]4[C@@H]1[C@H]2OC; value = 100%

Block 2
Target: Calcium/calmodulin-dependent protein kinase type II subunit alpha (CAMK2A, Homo sapiens, UniProt Q9UQM7)
UniProt Q9UQM7, sequence (whole entry, looked up): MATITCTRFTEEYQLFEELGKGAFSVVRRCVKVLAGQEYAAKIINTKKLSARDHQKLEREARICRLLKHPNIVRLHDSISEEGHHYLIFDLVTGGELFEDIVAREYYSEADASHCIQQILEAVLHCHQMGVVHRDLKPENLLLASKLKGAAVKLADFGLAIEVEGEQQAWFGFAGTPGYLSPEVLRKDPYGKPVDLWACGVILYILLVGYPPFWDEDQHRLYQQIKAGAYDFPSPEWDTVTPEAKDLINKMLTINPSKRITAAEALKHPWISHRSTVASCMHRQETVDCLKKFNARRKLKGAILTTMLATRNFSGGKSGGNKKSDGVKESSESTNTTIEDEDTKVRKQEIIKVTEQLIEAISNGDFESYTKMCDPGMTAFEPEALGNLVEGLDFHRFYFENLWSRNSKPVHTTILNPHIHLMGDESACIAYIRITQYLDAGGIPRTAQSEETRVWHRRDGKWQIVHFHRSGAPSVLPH
Observed: enzyme activity
Mode: inhibitor
Tested at: 10 µM
Quantity: inhibition
SMILES = COc1ccc(-c2cc(=O)c3c(OC)c(OC)c(OC)cc3o2)cc1; value = -13%
SMILES = CCN1C[C@]2(COC)CC[C@H](OC)[C@]34C1C([C@H](OC)[C@H]23)[C@]1(OC(C)=O)[C@H]2[C@@H](OC(=O)c3ccccc3)[C@](O)(C[C@H]24)[C@@H](OC)[C@@H]1O; value = 9%
SMILES = NCCP(=O)(O)O; value = -21%
SMILES = CC(=O)/C=C/c1ccccc1; value = -86%
SMILES = C=C1[C@@H]2CC[C@H]3[C@]4(C)C[C@H](O[C@H]5O[C@H](CO)[C@@H](OS(=O)(=O)O)[C@H](OS(=O)(=O)O)[C@H]5OC(=O)CC(C)C)C[C@@H](C(=O)O)[C@H]4CC[C@]3(C2)[C@H]1O; value = -12%
SMILES = CO[C@H]1[C@H](O)[C@H](O[C@H]2CC[C@@]3(C)[C@H](CC[C@@H]4[C@@H]3CC[C@]3(C)[C@@H](C5=CC(=O)OC5)CC[C@]43O)C2)O[C@@H](C)[C@@H]1O; value = 32%

Block 3
Cell line: mouse MPNST tumor cells
Technique: high-content nuclear imaging
Item: cell number
Tested at: 10 µM
Time: 12 h
Setting: mean of 2 replicates
Relative to: plate mean
Reading: higher = more cells
Quantity: nuclei count
Structure (SMILES) = CCNC(=O)[C@H]1O[C@@H](n2cnc3c(N)ncnc32)[C@H](O)[C@@H]1O; value = 0.678 z-score
Structure (SMILES) = CN[C@@H]1Cc2cccc3[nH]c(=O)n(c23)C1; value = 1.81 z-score
Structure (SMILES) = C[C@]12CC[C@@H](O)C[C@@H]1CC[C@@H]1[C@@H]2CC[C@]2(C)C(=O)CC[C@@H]12; value = 1.75 z-score
Structure (SMILES) = C[C@@H]1CN(Cc2ccc(F)cc2)CCN1C(=O)COc1ccc(Cl)cc1NC(N)=O; value = 1.39 z-score
Structure (SMILES) = NCCc1ccccn1; value = 1.5 z-score
Structure (SMILES) = N#Cc1c(N)nc(SCC(N)=O)c(C#N)c1-c1ccc(OCC2CC2)cc1; value = -1.64 z-score
Structure (SMILES) = O=C(CCCN1CCC2(CC1)C(=O)NCN2c1ccccc1)c1ccc(F)cc1; value = 1.44 z-score and 1.99 z-score
Structure (SMILES) = CC(CCc1ccccc1)NC(C)C(O)c1ccc(O)cc1 (stereo not drawn); value = -0.982 z-score

Block 4
SMILES: COC[C@H]1OC(=O)c2coc3c2[C@@]1(C)C1=C(C3=O)[C@@H]2CCC(=O)[C@@]2(C)C[C@H]1OC(C)=O
Observed: enzyme activity
Mode: inhibitor
Tested at: 0.5 µM
Relative to: control
Quantity: remaining activity
target = Vascular endothelial growth factor receptor 3 (FLT4, Homo sapiens, UniProt P35916); value = 113%
target = PAS domain-containing serine/threonine-protein kinase (PASK, Homo sapiens, UniProt Q96RG2); value = 87.9%
target = Serine/threonine-protein kinase NLK (NLK, Homo sapiens, UniProt Q9UBE8); value = 93.8%
target = Homeodomain-interacting protein kinase 1 (HIPK1, Homo sapiens, UniProt Q86Z02); value = 108%
target = Tyrosine-protein kinase Fgr (FGR, Homo sapiens, UniProt P09769); value = 87.9%
target = Tyrosine-protein kinase Fyn (FYN, Homo sapiens, UniProt P06241); value = 92.3%
target = Serine/threonine-protein kinase MRCK alpha (CDC42BPA, Homo sapiens, UniProt Q5VT25); value = 89.2%
target = cAMP-dependent protein kinase catalytic subunit PRKX (PRKX, Homo sapiens, UniProt P51817); value = 91.7%
target = Serine/threonine-protein kinase Nek11 (NEK11, Homo sapiens, UniProt Q8NG66); value = 95.1%
target = Cyclin-dependent kinase 3, with cyclin E (CDK3, Homo sapiens, UniProt Q00526); value = 95.2%
target = Insulin receptor (INSR, Homo sapiens, UniProt P06213); value = 87.7%
target = Tyrosine-protein kinase ITK/TSK (ITK, Homo sapiens, UniProt Q08881); value = 90%
target = LIM domain kinase 1 (LIMK1, Homo sapiens, UniProt P53667); value = 86.7%
target = Tyrosine-protein kinase Fer (FER, Homo sapiens, UniProt P16591); value = 81.7%
target = Serine/threonine-protein kinase TAO3 (TAOK3, Homo sapiens, UniProt Q9H2K8); value = 96.9%
target = Serine/threonine-protein kinase N1 (PKN1, Homo sapiens, UniProt Q16512); value = 94.2%
target = Proto-oncogene tyrosine-protein kinase Src (SRC, Homo sapiens, UniProt P12931); value = 99.5%
target = RAC-alpha serine/threonine-protein kinase (AKT1, Homo sapiens, UniProt P31749); value = 95.4%
target = Serine/threonine-protein kinase 25 (STK25, Homo sapiens, UniProt O00506); value = 90.3%
target = MAP/microtubule affinity-regulating kinase 3 (MARK3, Homo sapiens, UniProt P27448); value = 112%
target = ALK tyrosine kinase receptor (ALK, Homo sapiens, UniProt Q9UM73); value = 103%
target = Megakaryocyte-associated tyrosine-protein kinase (MATK, Homo sapiens, UniProt P42679); value = 98.8%

Single results of other studies
SMILES = O=C(O)c1cc(-c2ccc(C3CCNCC3)cc2)c2ccc(-c3ccc(C(F)(F)F)cc3)cc2c1; target = Cyclin-dependent kinase 2 homolog (CRK2, Plasmodium falciparum, UniProt P61075); test = cell-free assay, competition with immobilised ligand; setting = 1 µM; quantity = remaining binding; value = 100%
SMILES = CNC(=N)NCCC[C@H](NC(=O)[C@H](CC(C)C)NC(=O)NNC(=O)[C@H](Cc1ccccc1)NC(=O)[C@H](CO)NC(=O)[C@H](CC(N)=O)NC(=O)[C@@H](Cc1cccnc1)NC(=O)[C@H](N)Cc1ccc(O)cc1)C(=O)NCC(N)=O; target = 5-hydroxytryptamine receptor 1E (HTR1E, Homo sapiens, UniProt P28566); test = ligand displacement, radioligand; setting = 10 µM; quantity = inhibition; value = 27.9%

A few entries again (block 4):
target = Tyrosine-protein kinase Fer (FER, Homo sapiens, UniProt P16591); value = 81.7%
target = Serine/threonine-protein kinase TAO3 (TAOK3, Homo sapiens, UniProt Q9H2K8); value = 96.9%
target = Serine/threonine-protein kinase N1 (PKN1, Homo sapiens, UniProt Q16512); value = 94.2%
target = Proto-oncogene tyrosine-protein kinase Src (SRC, Homo sapiens, UniProt P12931); value = 99.5%
target = RAC-alpha serine/threonine-protein kinase (AKT1, Homo sapiens, UniProt P31749); value = 95.4%
